Experimental data from different studies.
Each line is one published result; not all experiments were run side by side.
Cell line: THP-1

`CCCCCc1cn(CCCCCCCCCCCOP(=O)([O-])OCC[N+](C)(C)C)nn1` gave a CC50 of > 50 µM (cell growth or viability, flow cytometry; 24 h).
For `CC(=O)[O-].CN1CCN2CCN(CC1)CCN(Cc1ccccc1)CC2.F[P-](F)(F)(F)(F)F.[Cu+2]`, the IC90 was > 20 µM (cytotoxicity).
`COC(=O)Cn1c(=O)n(C(C)=O)c2cc(B(O)O)ccc21` — result for “highest non-toxic concentration”: < 2 mM (CellTiter-Glo; 6 h).
For `Cc1ccc(NC(=O)N2CCCN3CCC(c4ccc(C#CC5(O)CCCCC5)cc4)C3C2)cc1` (stereo not drawn), the CC50 was 13.8 µM (cell growth or viability, ATP luminescence; 72 h).
The IC50 of `CC(=O)[O-].F[P-](F)(F)(F)(F)F.[Co+2].c1ccc(CN2CCCN3CCN(CCCN(Cc4ccccc4)CC3)CC2)cc1` is reported as > 15 µM (cell growth or viability).
`CC/C(=C\c1ccc(OCC(=O)NC(C(=O)N2CCSCC2)c2ccccc2)cc1)[N+](=O)[O-]` (stereo not drawn) gave a CC50 of 2.98 µM (MTT; 72 h, 10% FBS).
`Cc1ccc(NC(=O)N2CCCN3CCC(c4ccc(C#Cc5cccnc5)cc4)C3C2)cc1` (stereo not drawn) gave a CC50 of 7.17 µM (cell growth or viability, ATP luminescence; 72 h).
The IC50 of `F[P-](F)(F)(F)(F)F.F[P-](F)(F)(F)(F)F.[Cu+2].c1ccc(CN2CCCNCCN(Cc3ccccc3)CCCNCC2)cc1` is reported as > 15 µM (cell growth or viability).
With `Cc1ccc(NC(=O)N2CCCN3CCC(c4ccc(C#CC5CCCC5O)cc4)C3C2)cc1` (stereo not drawn) the CC50 was 20 µM (cell growth or viability, ATP luminescence; 72 h).
For `COc1ccc(CCNC(=O)C(=O)[C@H](Cc2ccccc2)NC(=O)c2oc3cc(OC)c(OC)cc3c(=O)c2C)cc1`, the CC50 was 29.1 µM (cell growth or viability; 72 h).
`CCOC(=O)c1c(C#N)c(-c2c[nH]c3c(C)cccc23)n(NC(=O)OC(C)(C)C)c1C` gave a CC50 of 65.2 µM (cell growth or viability).
`[Cl-].[Cl-].[Mn+2].c1ccc(CN2CCNCCN(Cc3ccccc3)CCNCC2)cc1` — result for cytotoxicity: “not toxic” (concentration not given).
With `CCOC(=O)c1c(C(=O)OC)cn(CC(c2cn(C)c3ccccc23)c2cn(C)c3ccccc23)c1C` the CC50 was > 200 µM (cell growth or viability, MTS; 72 h).
The IC50 of `CC(=O)[O-].F[P-](F)(F)(F)(F)F.[Cu+2].c1ccc(CN2CCN3CCN(CC2)CCN(Cc2ccccc2)CC3)cc1` is reported as > 20 µM (cell growth or viability).
For `CC/C(=C\c1ccc(OCC(=O)NC(C(=O)N2CCOCC2)c2ccccc2)cc1)[N+](=O)[O-]` (stereo not drawn), the CC50 was 46.8 µM (MTT; 72 h, 10% FBS).

Excerpt of the above:
For `Cc1ccc(NC(=O)N2CCCN3CCC(c4ccc(C#CC5(O)CCCCC5)cc4)C3C2)cc1` (stereo not drawn), the CC50 was 13.8 µM (cell growth or viability, ATP luminescence; 72 h).
The IC50 of `CC(=O)[O-].F[P-](F)(F)(F)(F)F.[Co+2].c1ccc(CN2CCCN3CCN(CCCN(Cc4ccccc4)CC3)CC2)cc1` is reported as > 15 µM (cell growth or viability).
